Results from different studies.
Protocols differ between the studies behind these lines. “And” joins repeats or separate records; there may be more than shown. Numbers after ± are the reported error.
Spike glycoprotein: Spike glycoprotein (Severe acute respiratory syndrome coronavirus 2, UniProt P0DTC2)
B1: cytochrome c peroxidase H52Q; sequence looked up; chain TTPLVHVASVEKGRSYEDFQKVYNAIALKLREDDEYDNYIGYGPVLVRLAWQTSGTWDKHDNTGGSYGGTYRFKKEFNDPSNAGLQNGFKFLEPIHKEFPWISSGDLFSLGGVTAVQEMQGPKIPWRCGRVDTPEDTTPDNGRLPDADKDADYVRTFFQRLNMNDREVVALMGAHALGKTHLKNSGYEGPWGAANNVFTNEFYLNLLNEDWKLEKNDANNEQWDSKSGYMMLPTDYSLIQDPKYLSIVKEYANDQDKFFKDFSKAFEKLLENGITFPKDAPSPFIFKTLEEQGL
B2: cytochrome c peroxidase H52N; sequence looked up; chain TTPLVHVASVEKGRSYEDFQKVYNAIALKLREDDEYDNYIGYGPVLVRLAWNTSGTWDKHDNTGGSYGGTYRFKKEFNDPSNAGLQNGFKFLEPIHKEFPWISSGDLFSLGGVTAVQEMQGPKIPWRCGRVDTPEDTTPDNGRLPDADKDADYVRTFFQRLNMNDREVVALMGAHALGKTHLKNSGYEGPWGAANNVFTNEFYLNLLNEDWKLEKNDANNEQWDSKSGYMMLPTDYSLIQDPKYLSIVKEYANDQDKFFKDFSKAFEKLLENGITFPKDAPSPFIFKTLEEQGL
Sequence of UniProt P0A8V2 (whole entry, looked up): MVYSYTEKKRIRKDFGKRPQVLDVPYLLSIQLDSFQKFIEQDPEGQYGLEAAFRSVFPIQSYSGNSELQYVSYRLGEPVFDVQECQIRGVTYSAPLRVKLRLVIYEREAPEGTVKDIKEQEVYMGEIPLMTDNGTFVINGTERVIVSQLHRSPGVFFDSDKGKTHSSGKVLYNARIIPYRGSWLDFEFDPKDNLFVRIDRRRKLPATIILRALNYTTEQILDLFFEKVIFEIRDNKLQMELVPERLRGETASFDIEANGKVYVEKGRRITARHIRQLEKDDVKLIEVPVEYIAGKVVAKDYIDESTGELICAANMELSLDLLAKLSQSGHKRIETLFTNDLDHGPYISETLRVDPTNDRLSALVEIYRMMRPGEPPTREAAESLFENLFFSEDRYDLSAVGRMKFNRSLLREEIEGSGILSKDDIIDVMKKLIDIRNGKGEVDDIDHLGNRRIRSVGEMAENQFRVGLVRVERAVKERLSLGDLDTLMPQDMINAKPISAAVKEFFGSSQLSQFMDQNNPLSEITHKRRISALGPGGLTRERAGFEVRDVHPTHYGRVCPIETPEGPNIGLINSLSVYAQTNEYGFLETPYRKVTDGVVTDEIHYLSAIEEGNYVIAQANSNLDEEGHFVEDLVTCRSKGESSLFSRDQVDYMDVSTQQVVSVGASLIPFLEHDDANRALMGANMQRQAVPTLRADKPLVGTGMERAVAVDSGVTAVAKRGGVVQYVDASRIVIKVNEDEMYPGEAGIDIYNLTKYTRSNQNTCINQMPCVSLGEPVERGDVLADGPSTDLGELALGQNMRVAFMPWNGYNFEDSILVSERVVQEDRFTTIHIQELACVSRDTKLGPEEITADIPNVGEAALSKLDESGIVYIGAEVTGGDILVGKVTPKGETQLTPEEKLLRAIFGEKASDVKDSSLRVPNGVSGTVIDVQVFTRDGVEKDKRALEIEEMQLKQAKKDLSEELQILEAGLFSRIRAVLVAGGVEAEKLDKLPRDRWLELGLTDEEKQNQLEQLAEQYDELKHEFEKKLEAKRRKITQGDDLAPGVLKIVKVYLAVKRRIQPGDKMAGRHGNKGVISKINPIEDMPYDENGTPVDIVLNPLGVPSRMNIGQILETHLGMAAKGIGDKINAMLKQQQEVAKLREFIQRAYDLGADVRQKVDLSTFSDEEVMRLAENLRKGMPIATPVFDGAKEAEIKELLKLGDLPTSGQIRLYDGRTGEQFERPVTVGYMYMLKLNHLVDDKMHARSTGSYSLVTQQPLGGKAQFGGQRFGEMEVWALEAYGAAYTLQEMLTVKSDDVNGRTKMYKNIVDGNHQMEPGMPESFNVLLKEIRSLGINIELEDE
Sequence of UniProt P18177 (whole entry, looked up): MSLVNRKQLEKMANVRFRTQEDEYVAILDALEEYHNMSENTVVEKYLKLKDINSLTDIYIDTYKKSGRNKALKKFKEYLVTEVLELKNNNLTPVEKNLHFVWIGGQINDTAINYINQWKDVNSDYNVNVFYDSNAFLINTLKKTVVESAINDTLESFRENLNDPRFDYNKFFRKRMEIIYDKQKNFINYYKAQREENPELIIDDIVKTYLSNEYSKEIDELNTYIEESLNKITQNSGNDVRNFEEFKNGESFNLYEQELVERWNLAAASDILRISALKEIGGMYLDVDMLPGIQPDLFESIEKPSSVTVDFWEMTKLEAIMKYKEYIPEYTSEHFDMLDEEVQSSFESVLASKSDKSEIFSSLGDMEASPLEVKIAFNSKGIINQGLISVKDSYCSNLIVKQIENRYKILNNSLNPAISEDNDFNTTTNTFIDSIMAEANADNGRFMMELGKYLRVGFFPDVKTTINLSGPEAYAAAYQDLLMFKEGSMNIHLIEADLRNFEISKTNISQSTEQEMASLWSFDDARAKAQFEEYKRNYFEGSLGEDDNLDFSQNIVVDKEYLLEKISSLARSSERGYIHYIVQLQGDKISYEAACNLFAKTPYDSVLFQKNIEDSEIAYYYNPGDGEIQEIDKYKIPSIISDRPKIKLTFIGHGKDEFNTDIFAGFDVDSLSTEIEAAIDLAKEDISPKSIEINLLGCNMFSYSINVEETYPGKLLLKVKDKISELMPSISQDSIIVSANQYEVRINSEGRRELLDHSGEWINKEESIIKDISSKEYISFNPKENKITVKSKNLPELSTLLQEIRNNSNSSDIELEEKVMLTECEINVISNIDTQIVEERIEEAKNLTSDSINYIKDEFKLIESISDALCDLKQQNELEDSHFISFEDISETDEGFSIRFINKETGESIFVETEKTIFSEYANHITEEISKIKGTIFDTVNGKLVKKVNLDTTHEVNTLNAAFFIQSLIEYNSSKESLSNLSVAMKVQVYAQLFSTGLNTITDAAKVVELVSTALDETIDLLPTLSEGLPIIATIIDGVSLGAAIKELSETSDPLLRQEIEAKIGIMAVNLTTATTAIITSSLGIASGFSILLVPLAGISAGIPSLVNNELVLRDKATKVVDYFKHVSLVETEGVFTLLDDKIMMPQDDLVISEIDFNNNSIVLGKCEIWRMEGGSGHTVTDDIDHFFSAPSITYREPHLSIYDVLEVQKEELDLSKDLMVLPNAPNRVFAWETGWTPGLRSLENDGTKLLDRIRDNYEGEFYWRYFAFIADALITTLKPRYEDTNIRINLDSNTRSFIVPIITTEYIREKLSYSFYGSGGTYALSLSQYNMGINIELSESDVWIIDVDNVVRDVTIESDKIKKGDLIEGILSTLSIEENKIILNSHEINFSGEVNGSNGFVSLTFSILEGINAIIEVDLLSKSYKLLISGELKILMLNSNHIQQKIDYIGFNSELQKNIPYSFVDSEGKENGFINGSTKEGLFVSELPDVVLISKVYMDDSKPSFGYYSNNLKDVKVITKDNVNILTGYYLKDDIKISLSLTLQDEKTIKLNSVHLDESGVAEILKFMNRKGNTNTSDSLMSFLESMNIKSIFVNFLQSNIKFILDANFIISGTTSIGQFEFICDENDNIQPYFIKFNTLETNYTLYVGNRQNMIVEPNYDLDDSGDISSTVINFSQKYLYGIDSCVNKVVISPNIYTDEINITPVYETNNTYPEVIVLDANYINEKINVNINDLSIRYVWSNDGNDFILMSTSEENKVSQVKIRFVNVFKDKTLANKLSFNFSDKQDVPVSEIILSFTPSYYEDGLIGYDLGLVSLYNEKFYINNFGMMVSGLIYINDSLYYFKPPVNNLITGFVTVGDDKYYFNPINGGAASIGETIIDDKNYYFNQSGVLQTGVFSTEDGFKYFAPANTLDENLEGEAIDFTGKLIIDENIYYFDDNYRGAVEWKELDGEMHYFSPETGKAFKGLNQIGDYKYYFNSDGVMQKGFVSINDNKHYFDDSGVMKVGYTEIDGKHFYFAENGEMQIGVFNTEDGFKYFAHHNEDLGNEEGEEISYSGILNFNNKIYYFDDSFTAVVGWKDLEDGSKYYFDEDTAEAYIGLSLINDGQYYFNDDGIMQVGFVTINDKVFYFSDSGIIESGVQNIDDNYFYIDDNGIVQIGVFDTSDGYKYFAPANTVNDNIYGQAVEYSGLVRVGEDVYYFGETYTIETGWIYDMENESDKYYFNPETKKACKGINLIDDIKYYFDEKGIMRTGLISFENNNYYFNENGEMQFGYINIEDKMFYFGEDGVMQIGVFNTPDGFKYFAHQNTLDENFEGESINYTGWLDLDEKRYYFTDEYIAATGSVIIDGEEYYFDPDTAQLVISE
Sequence of UniProt P0A8T7 (whole entry, looked up): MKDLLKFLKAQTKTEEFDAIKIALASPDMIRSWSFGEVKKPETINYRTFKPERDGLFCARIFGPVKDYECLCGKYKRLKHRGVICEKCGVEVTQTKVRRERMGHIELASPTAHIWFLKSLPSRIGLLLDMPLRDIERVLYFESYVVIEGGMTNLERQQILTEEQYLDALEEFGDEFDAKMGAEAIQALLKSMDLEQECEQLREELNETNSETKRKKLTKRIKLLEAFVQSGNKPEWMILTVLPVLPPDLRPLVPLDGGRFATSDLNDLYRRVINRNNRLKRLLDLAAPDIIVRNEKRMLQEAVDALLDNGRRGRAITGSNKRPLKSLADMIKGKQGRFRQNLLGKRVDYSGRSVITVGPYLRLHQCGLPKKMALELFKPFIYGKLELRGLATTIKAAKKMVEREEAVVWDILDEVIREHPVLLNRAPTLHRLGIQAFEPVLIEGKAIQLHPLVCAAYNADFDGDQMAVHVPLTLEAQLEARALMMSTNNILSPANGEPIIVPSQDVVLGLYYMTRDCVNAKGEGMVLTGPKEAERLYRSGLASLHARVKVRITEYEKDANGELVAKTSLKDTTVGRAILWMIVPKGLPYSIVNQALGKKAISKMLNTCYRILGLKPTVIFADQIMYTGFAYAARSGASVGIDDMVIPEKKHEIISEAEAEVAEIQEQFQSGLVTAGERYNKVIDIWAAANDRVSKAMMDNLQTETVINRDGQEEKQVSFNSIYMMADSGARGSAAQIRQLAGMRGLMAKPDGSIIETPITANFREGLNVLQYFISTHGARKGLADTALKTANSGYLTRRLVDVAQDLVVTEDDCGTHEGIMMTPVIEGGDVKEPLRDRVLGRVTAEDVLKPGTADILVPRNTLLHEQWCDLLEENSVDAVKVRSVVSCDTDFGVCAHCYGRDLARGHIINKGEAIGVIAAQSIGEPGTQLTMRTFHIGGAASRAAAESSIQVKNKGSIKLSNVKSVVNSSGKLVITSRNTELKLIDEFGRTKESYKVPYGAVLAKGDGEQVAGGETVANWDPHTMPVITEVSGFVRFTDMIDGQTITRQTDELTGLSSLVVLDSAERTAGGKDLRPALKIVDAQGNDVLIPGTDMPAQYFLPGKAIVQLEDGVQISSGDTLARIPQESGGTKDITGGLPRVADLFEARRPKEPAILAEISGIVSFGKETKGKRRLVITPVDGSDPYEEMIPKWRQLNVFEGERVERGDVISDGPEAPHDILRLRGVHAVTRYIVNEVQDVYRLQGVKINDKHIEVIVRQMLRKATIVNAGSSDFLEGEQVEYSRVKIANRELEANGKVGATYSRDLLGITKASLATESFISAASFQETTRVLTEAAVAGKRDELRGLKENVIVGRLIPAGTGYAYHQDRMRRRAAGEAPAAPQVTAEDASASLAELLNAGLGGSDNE

For CC[C@H](C)[C@H](NC(=O)[C@H](CC(C)C)NC(=O)[C@H](Cc1c[nH]c2ccccc12)NC(=O)[C@H](CCC(N)=O)NC(=O)[C@@H](NC(=O)[C@H](Cc1ccccc1)NC(=O)[C@H](C)NC(=O)[C@H](CCCCNC(=O)COCCOCCNC(=O)COCCOCCNC(=O)CC[C@H](NC(=O)CCCCCCCCCCCCCCCCCCC(=O)O)C(=O)O)NC(=O)[C@H](CCC(N)=O)NC(=O)[C@H](C)NC(=O)[C@@H](NC(=O)[C@H](CCCCN)NC(=O)[C@H](CC(=O)O)NC(=O)[C@H](CC(C)C)NC(=O)C(C)(C)NC(=O)[C@@H](NC(=O)[C@H](CO)NC(=O)[C@H](Cc1ccc(O)cc1)NC(=O)[C@H](CC(=O)O)NC(=O)[C@H](CO)NC(=O)[C@@H](NC(=O)[C@H](Cc1ccccc1)NC(=O)[C@@H](NC(=O)CNC(=O)[C@H](CCC(=O)O)NC(=O)C(C)(C)NC(=O)[C@@H](N)Cc1ccc(O)cc1)[C@@H](C)O)[C@@H](C)O)[C@@H](C)CC)[C@@H](C)CC)C(C)C)C(=O)N[C@@H](C)C(=O)NCC(=O)NCC(=O)N1CCC[C@H]1C(=O)N[C@@H](CO)C(=O)N[C@@H](CO)C(=O)NCC(=O)N[C@@H](C)C(=O)N1CCC[C@H]1C(=O)N1CCC[C@H]1C(=O)N1CCC[C@H]1C(=O)N[C@@H](CO)C(N)=O, “subjects with treatment-emergent ADA” read 0% (measured: anti-drug antibodies; healthy subjects; 4.5 mg, postbaseline, multiple ascending dose).
With CC(C)C[C@H](NC(=O)[C@@H](NC(=O)[C@@H](N)Cc1c[nH]cn1)[C@@H](C)O)C(=O)N[C@@H](CCC(=O)O)C(=O)N[C@@H](Cc1c[nH]c2ccccc12)C(=O)N[C@@H](CCCNC(=N)N)C(=O)N[C@@H](CCCNC(=N)N)C(=O)N[C@@H](Cc1c[nH]c2ccccc12)C(=O)O the Ki was 125 µM (Toxin B (tcdB, Clostridioides difficile, UniProt P18177); enzyme activity, inhibitor).
Cn1cnc(Cn2c(=O)[nH]/c(=N\c3cc4cn(C)nc4cc3Cl)n(Cc3cc(F)c(F)cc3F)c2=O)n1 has an IC50 of > 100 µM (Cytochrome P450 1A2 (CYP1A2, Homo sapiens, UniProt P05177); enzyme activity, inhibitor; human liver microsomes; 0 min preincubation, pH 7.4, added: phenacetin 90 µM).
Nc1ncnc2c([C@@H]3N[C@H](CO)[C@@H](O)[C@H]3O)c[nH]c12 gave an inhibition of 0.1% (Venezuelan equine encephalitis virus; viral replication; HeLa, SH3; 12.5 µM).
For OC[C@H]1O[C@@H](Oc2c(O)cc(O)cc2/C=C/c2ccc(O)cc2)[C@H](O)[C@@H](O)[C@@H]1O, the Kd was 66.2 µM (Spike glycoprotein; binding).
For CNC(=O)[C@@H](NC(=O)[C@H](CCCc1ccccc1)[C@H](C)N(O)C=O)C(C)(C)C, the inhibition was -0.509% (Replicase polyprotein 1ab, main protease (rep, Severe acute respiratory syndrome coronavirus 2, UniProt P0DTD1); reporter gene (mKate2), inhibitor; 20 µM).
Cn1cnc(Cn2c(=O)[nH]/c(=N\c3cc4cn(C)nc4cc3Cl)n(Cc3cc(F)c(F)cc3F)c2=O)n1 — result for “patients with adverse event”: 0% (human, severe renal impairment; oral, 375 mg, treatment-related decreased GFR, Mild severity).
CC1=C(/C=C/C(C)=C/C=C/C(C)=C/C=C/C=C(C)/C=C/C=C(C)/C=C/C2=C(C)CCCC2(C)C)C(C)(C)CCC1 has a Kd of 110 µM (Spike glycoprotein; binding, BLI).
CC[C@H](C)[C@H](NC(=O)[C@H](CC(C)C)NC(=O)[C@H](CO)NC(=O)[C@H](Cc1c[nH]cn1)NC(=O)[C@@H](NC(=O)[C@H](CC(C)C)NC(=O)[C@H](CO)NC(=O)[C@@H](NC(=O)[C@H](Cc1ccc(O)cc1)NC(=O)[C@H](CC(N)=O)NC(=O)[C@H](CC(N)=O)NC(=O)[C@@H](NC(=O)[C@H](CCC(=O)O)NC(=O)[C@H](CCCNC(=N)N)NC(=O)[C@H](CC(=O)O)NC(=O)[C@H](Cc1c[nH]c2ccccc12)NC(=O)[C@H](CCC(=O)O)NC(=O)[C@H](CCSC)NC(=O)[C@H](Cc1c[nH]c2ccccc12)NC(C)=O)[C@@H](C)CC)[C@@H](C)O)[C@@H](C)CC)C(=O)N[C@@H](CCC(=O)O)C(=O)N[C@@H](CCC(=O)O)C(=O)N[C@@H](CO)C(=O)N[C@@H](CCC(N)=O)C(=O)N[C@@H](CC(N)=O)C(=O)N[C@@H](CCC(N)=O)C(=O)N[C@@H](CCC(N)=O)C(=O)N[C@@H](CCC(=O)O)C(=O)N[C@@H](CCCCN)C(=O)N[C@@H](CC(N)=O)C(=O)N[C@@H](CCC(=O)O)C(=O)N[C@@H](CCC(N)=O)C(=O)N[C@@H](CCC(=O)O)C(=O)N[C@@H](CC(C)C)C(=O)N[C@@H](CC(C)C)C(=O)NCC(=O)N[C@@H](CO)C(=O)NCC(=O)N[C@@H](CSCC(=O)O[C@H]1CC[C@@]2(C)C(=CC[C@H]3[C@@H]4CC[C@H]([C@H](C)CCCC(C)(C)O)[C@@]4(C)CC[C@@H]32)C1)C(N)=O has a Kd of 11 ± 7.7 µM (membrane binding, di-8-ANEPPS dipole potential; POPC LUVs).
N[C@@H](C[C@]1(C(=O)O)C[C@H]2OC[C@@H](O)[C@@H](O)[C@H]2O1)C(=O)O has a Ki of 3 µM (Glutamate receptor ionotropic, kainate 3 (Rattus norvegicus, UniProt P42264); [3H]kainate displacement; HEK-293T/17 membranes).
With CC1(C)CC[C@]2(C(=O)O[C@@H]3O[C@H](CO)[C@@H](O)[C@H](O)[C@H]3O)CC[C@]3(C)C(=CC[C@@H]4[C@@]5(C)CC[C@H](O[C@@H]6O[C@H](C(=O)O)[C@@H](O)[C@H](O)[C@H]6O)C(C)(C)[C@@H]5CC[C@]43C)[C@@H]2C1 the Kd was 90.4 µM (Spike glycoprotein; binding, biolayer interferometry).
The Kd of `B1 (cytochrome c peroxidase H52Q)` is reported as 6100 µM (cyanide binding; spectrophotometric titration; pH 6.0, 25 °C, added: cyanide).
The remaining activity of CNC(=O)[C@@H](NC(=O)[C@H](CC(C)C)[C@H](O)C(=O)NO)C(C)(C)C is reported as 83.7% and 82.4% and 80.5% (Daboia russelii venom proteases (SVMP); protease activity, inhibitor; GA population; 1 µM, added: azocasein substrate; reference: venom alone).
With CC(=O)O[C@@H]1[C@H](N)[C@@H](OP(=O)(O)O)[C@@]2(C(=O)O)CS[C@@](O)(C(N)=O)[C@@H]1O2 the Kd was 2.1 ± 0.9 µM (DNA-directed RNA polymerase subunit beta' / DNA-directed RNA polymerase subunit beta (rpoC/rpoB, Escherichia coli, UniProt P0A8T7+P0A8V2); binding to elongation complex, 6-MI fluorescence titration; wild-type RNAP; 2′-deoxy RNA 3′-end Adenine).
`B2 (cytochrome c peroxidase H52N)` gave a Kd of 9400 µM (cyanide binding; spectrophotometric titration; pH 6.0, 25 °C, added: cyanide).

Some of these lines once more:
Cn1cnc(Cn2c(=O)[nH]/c(=N\c3cc4cn(C)nc4cc3Cl)n(Cc3cc(F)c(F)cc3F)c2=O)n1 has an IC50 of > 100 µM (Cytochrome P450 1A2 (CYP1A2, Homo sapiens, UniProt P05177); enzyme activity, inhibitor; human liver microsomes; 0 min preincubation, pH 7.4, added: phenacetin 90 µM).
